Experimental data gathered from unrelated publications.
Each numbered part is a random draw from the data of one study; scales do not carry over between parts. “And” joins repeats or separate records; there may be more than shown. Changes are numbered by the printed parent chain.
Chain of UniProt P61075 (whole entry, looked up): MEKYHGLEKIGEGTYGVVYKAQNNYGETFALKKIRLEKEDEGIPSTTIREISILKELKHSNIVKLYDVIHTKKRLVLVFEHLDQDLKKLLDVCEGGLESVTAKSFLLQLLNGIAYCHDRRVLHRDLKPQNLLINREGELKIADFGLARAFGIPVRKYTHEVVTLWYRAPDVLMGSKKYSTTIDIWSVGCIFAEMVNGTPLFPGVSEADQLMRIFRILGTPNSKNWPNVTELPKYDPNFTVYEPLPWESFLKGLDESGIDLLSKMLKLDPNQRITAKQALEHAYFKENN

Study 1
Target: UDP-N-acetylglucosamine--peptide N-acetylglucosaminyltransferase 110 kDa subunit (OGT, Homo sapiens, UniProt O15294)
Chain of UniProt O15294 (whole entry, looked up): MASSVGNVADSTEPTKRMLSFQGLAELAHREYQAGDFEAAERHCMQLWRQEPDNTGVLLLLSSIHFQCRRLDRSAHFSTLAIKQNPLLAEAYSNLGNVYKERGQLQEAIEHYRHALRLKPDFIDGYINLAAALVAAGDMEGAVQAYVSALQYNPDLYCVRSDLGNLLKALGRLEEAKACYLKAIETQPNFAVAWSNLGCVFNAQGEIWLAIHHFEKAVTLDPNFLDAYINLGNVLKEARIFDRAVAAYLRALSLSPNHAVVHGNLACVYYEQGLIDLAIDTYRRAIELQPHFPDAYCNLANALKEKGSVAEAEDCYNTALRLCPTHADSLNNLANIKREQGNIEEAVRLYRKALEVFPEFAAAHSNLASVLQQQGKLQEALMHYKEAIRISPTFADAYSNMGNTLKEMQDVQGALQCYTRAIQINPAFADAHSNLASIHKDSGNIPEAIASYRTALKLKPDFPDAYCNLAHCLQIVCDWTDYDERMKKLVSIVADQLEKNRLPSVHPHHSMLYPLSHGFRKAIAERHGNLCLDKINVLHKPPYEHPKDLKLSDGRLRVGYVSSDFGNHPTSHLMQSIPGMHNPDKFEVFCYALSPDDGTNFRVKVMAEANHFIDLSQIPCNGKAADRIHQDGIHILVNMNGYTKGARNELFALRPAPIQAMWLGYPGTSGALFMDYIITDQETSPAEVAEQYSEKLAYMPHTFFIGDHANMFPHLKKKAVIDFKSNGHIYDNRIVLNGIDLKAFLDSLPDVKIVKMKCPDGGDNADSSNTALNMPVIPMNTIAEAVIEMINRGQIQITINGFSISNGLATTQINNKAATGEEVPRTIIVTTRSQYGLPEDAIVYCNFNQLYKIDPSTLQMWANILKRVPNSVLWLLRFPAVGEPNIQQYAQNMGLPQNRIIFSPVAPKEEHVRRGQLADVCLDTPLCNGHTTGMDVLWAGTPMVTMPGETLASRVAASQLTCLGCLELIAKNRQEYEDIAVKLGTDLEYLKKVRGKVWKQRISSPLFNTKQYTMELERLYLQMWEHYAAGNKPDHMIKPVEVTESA
Observed: binding
Method: phage display NGS
Form: peptide
Tested at: concentration not given
Relative to: input library
Molecule | enrichment fold change
TLFPPVYQIFAIGME | 3.77
HRHDYDYQHHLPRYF | 4.18
HTYDLTGPSHWFTRI | 2.26
HNYHNHRVQMEYRGE | 5.71
SHTHTQRDFHGIYSN | 9.8
YTDNEEIIFHHHQVA | 3.7
SHKPHRASMPSALQF | 2.36
HVRWHHSDAPYWTDI | 5.46

Study 2
Target: CCNA1, cyclin fold, Cln2 fusion (human)
Method: yeast growth competition, sequencing
Matrix: yeast
Notes: strong parent motif
Relative to: not given
Direction: higher = stronger binding
Parent: viral docking peptide; YKVKRRLVFGADD; partner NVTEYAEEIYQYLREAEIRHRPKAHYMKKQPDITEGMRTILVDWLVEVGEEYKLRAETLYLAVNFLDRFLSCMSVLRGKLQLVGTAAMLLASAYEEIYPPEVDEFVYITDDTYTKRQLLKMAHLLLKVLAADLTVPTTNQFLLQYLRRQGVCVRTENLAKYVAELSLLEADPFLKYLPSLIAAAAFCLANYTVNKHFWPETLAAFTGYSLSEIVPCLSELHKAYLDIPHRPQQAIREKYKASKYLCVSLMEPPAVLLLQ
Change | normalised enrichment score
K4G | 0.519
D12V | 1.26
L7C | -0.149
F9V | 0.305
R5M | 0.408
K2E | 1.43
K4L | -0.00861
D12N | 1.4

Other studies, line by line
Compound | tested on | test | setting | how to read | quantity | result
CN1CCN(c2cnc3c(C4CCN(C(=O)c5ccc(OC(F)(F)F)cc5N)CC4)ncnc3c2)CC1 | Cyclin-dependent kinase 2 homolog (CRK2, Plasmodium falciparum, UniProt P61075) | cell-free assay, competition with immobilised ligand | 1 µM | – | remaining binding | 100%
CC(=O)[C@H]1CC[C@H]2[C@@H]3CC[C@H]4C[C@H](O)CC[C@]4(C)[C@H]3CC[C@]12C | mouse MPNST tumor cells | high-content nuclear imaging, refers to: cell number | 10 µM, 12 h, mean of 2 replicates | relative to: plate mean, higher = more cells | nuclei count | 0.272 z-score
O=C1CCC(N2Cc3c(ccc4c3OCC43CCN(Cc4ccccc4)CC3)C2=O)C(=O)N1 (stereo not drawn) | Caco-2 | – | 10 µM, 120 min, apical to basolateral | – | recovery | 89.5%
CCCN1CCCC[C@H]1C(=O)Nc1c(C)cccc1C | HEK-293T/ACE2 | – | concentration not given, 16 (unit not given) | relative to: vehicle | viability | 100%
CNCc1ccc(-c2[nH]c3cc(F)cc4c3c2CCNC4=O)cc1 | RPE-1 BRCA2-/- | – | 0.1 µM, unit not given | relative to: untreated | clonogenic survival | 0.0268 and 0.0575 and 0.0107

Some of these lines once more (study 2):
Change | normalised enrichment score
K4G | 0.519
D12V | 1.26
